Experimental data from different studies.
Numbered parts are unrelated; each lists some results of a single study. Positions count from the first letter of the parent shown.

Sample 1
Target: CCNE1, cyclin fold, Cln2 fusion (human)
Method: yeast growth competition, sequencing
Sample: yeast
Notes: weak parent motif
Reference: not given
Direction: higher = stronger binding
Parent: PKN2 docking peptide (human); VSAVQKLDFSDTM
Variant	normalised enrichment score
VSAGQKLDFSDTM [V4G]	-0.217
VSAVQKLDFHDTM [S10H]	0.611
VSNVQKLDFSDTM [A3N]	-0.0804
VSAVQKCDFSDTM [L7C]	-0.271
VSAVQKDDFSDTM [L7D]	0.114
VSAVQHLDFSDTM [K6H]	-0.642
VSAVQKYDFSDTM [L7Y]	-0.252
VSAVQKLDCSDTM [F9C]	0.0308
VSAVQKLDFIDTM [S10I]	0.778
VSAVQKLDFKDTM [S10K]	0.113
PSAVQKLDFSDTM [V1P]	0.863
VSAVQKLDFSDTF [M13F]	0.741
VSAVQKLDFSDSM [T12S]	0.825
VSAVQSLDFSDTM [K6S]	0.85
VSAVQKLDNSDTM [F9N]	0.486
VSAVQKLDFSMTM [D11M]	0.273
VSAVQKLDFMDTM [S10M]	0.624
VSAVQCLDFSDTM [K6C]	0.683
SSAVQKLDFSDTM [V1S]	1.07
HSAVQKLDFSDTM [V1H]	0.749
VFAVQKLDFSDTM [S2F]	0.54
VSAVQKKDFSDTM [L7K]	0.14
VSAVQKLDHSDTM [F9H]	-0.639
VSAVQKLSFSDTM [D8S]	0.241
VSACQKLDFSDTM [V4C]	0.0825

Sample 2
Target: RNA binding protein fox-1 homolog 2, RRM domain, GST-SBP tag (RBFOX2, Homo sapiens, UniProt O43251-10, residues 100-194)
Method: RNA Bind-n-Seq
Form: RNA
Sample: in vitro
Tested at: 365 nM
Notes: natural RNA segment, single round, ends assumed
Reference: no-protein control
Direction: higher = stronger binding
All sequences stand within: GGGAGUUCUACAGUCCGACGAUC … UGGAAUUCUCGGGUGCCAA
Target sequence (chain): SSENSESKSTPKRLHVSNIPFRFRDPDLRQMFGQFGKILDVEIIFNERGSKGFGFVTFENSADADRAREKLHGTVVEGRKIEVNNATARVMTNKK
Sequence	RBNS enrichment (R)
AGAAAUGCCAGUCUUCCACUACCCCCUCCCUGCCAUCUUUUCUUCUGCUACUUUGGGGAGUUGAUGGCCAGGAAAGAAGCCAGCACAGGGUUAAAGUAACUCCUGGCAUU	0.837
AUUUGUCCUGGAAUUGUCACGGUGCCUUGGUGUCAGCAGCAGUAACUUGGUGCCAAGGCCAAGAGAGAACAGCCCCUGGUCUGCGUCUGUGUCCCCAAGAGAGAGGCUGA	0.663
GUGCUGUGUGUCCCUCGCAAGAAGCACAGGAAAGAGAAGUUUCUUUAGUAGCCACUAGACAACCACCCUUUCUGAAAGCAAACAGUGCUGCUCUUUAUUCCAGACAAGGC	0.194
AAGUACCUAUAAAACCCUGUACACACCUAGUUCAUAUUCCUCAUAAUUUAUCAACAAACACAAAAAAGUGUCUUACUUGAGAGCGAAUGAGUGUGUGUGUGUGUGUGUGU	0.277
CCAGGGCUCCCUUGGCCCCUUCACGUAGGAAAUAGACACGUGCUUUUUAAUGCAGGACACUUUGAGUGUUACAAAAUCUGUAGACCUGGCAGUAGGGUCAUGAUGUUGGG	0.384
AUCUCCACCCCCCAAGAGCCAUUGAGUGAGGUGCUUUUAGCCCUUUUGACUAAUUAGAAAUUCAGGCUGCUUGGGAUAAUGAGACAAGGACCAGAACCUCCUCCCCACCU	0.391
GCCCUUCUUUCAAGGCAGAUUGAUAGGUCUUUAGAACAAACAUUUCACAGGGAUCAUUCUCUUCUCUCCUUUUUAAUGAAGUCCAAAAUCACAGGAAGUGAAGAACAUUU	0.354
CUCUGUGUUUAUGUGUGUGUGUCUGUGUGAGAGAAGAAAAAUCUGUAGAGAAGAGGCACGCUUAUGACUAUUGUUCAAAUACAUAAAAACAGUUAUUUUAAAACAGUCCA	3.34
CGGGCUGCAGUGGCGGAAGUGCUGGCGCCAUAGCCACGGUCAGGCUGUGCCCCACCUCCAGCCUCACCACCAGGCCAGGAGGCAGCUGGCACAGUGCUCACGCCGCCUUU	0.304
GAUAAUACAAUGAUUUCAUUAACUUUUCAUUUCUGUAUACCUGUUCAUUUGGAAUUUAAUGCUUGACUUCUUUGUUCAUUUUGGAUCUAAACUUCUCUUUUCUUCCUUCC	0.398
CCACCAUACCCGGCCAAAAAUUUUUGCUUUUAAAGUUAAUGUUAUUUUGUGGUUAAACUUCUAAAGUUUUGAACUGUAAGCAGAAUUUUGUUUUGUGAUAUUUUAUUGUA	0.641
UUCACUUGCAUAUGAAAUAUAAGGCAGUUAACAUCUUGUUUGUGGCUUAAGCAAGGACAUUAAUCCUACUAGAUGAAGGGGAAGUUGGUUCUGUUGUCUUAAGGGAUGCC	0.658

Sample 3
Target: UBE2O UBC core domain (UniProt Q9C0C9)
Method: yeast two-hybrid
Sample: yeast
Notes: mostly zero background
Reference: not given
Direction: higher = stronger interaction
B1: RNF25 RING domain (UniProt Q96BH1); chain LTDNNIPHGQCVICLYGFQEKEAFTKTPCYHYFHCHCLARYIQHMEQELKAQGQEQEQERQHATTKQKAVGVQCPVCREPLVYDLASL
B2: RNF170 RING domain (UniProt Q96K19); chain TRQQFYTDMYCPICLHQASFPVETNCGHLFCGACIIAYWRYGSWLGAISCPICRQTVTLLLTVF
B3: TRIM69 RING domain (UniProt Q86WT6); chain VIQDITMELHCPLCNDWFRDPLMLSCGHNFCEACIQDFWRLQAKETFCPECKMLCQYNNCTF
B4: UHRF2 RING domain (UniProt Q96PU4); chain CGGDPEKKCHSCSCRVCGGKHEPNMQLLCDECNVAYHIYCLNPPLDKVPEEEYWYCPSCKTDSSEVVKAGER
B5: RC3H2 RING domain (UniProt Q9HBD1); chain QAAQWTEFLSCPICYNEFDENVHKPISLGCSHTVCKTCLNKLHRKACPFDQTAINTDIDVL
B6: TRIM63 RING domain (UniProt Q969Q1); chain PMENLEKQLICPICLEMFTKPVVILPCQHNLCRKCANDIFQAANPYWTSRGSSVSMSGGRFRCPTCRHEVIMDRHGV
Target sequence (chain): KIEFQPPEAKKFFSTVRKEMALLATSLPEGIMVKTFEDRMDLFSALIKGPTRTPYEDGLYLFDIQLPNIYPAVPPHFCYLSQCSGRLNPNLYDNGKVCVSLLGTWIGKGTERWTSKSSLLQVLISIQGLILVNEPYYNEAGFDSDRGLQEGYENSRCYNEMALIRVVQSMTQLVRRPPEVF
Molecule	lacZ reporter activity
EDEVSDNSAECVVCLSDVRDTLILPCRHLCLCNTCADTLRYQANNCPICRLPFRALLQIR (RNF157 RING domain (UniProt Q96PX1))	0
B1 (RNF25 RING domain)	0
B2 (RNF170 RING domain)	0
B3 (TRIM69 RING domain)	0
B4 (UHRF2 RING domain)	0
PEELQAMDNVCIICREEMVTGAKRLPCNHIFHTSCLRSWFQRQQTCPTCRMDVLRASLPA (SYVN1 RING domain (UniProt Q86TM6))	0
KTLSRFGIQPCSICLGDAKDPVCLPCDHVHCLRCLRAWFASEQMICPYCLTALPDEFSPA (RNF213 RING domain (UniProt Q63HN8))	0
B5 (RC3H2 RING domain)	0
VTLSLTLPITCHICLGKVRQPVICINNHVFCSICIDLWLKNNSQCPACRVPITPENPCK (OBI1 RING domain (UniProt Q5W0B1))	0
B6 (TRIM63 RING domain)	0

Sample 4
Target: Phosphate system positive regulatory protein PHO4, full length, GST-tagged (PHO4, Saccharomyces cerevisiae, UniProt P07270, residues 1-312)
Method: competition protein-binding microarray
Form: double-stranded DNA, one strand shown
Sample: in vitro
Tested at: 2 µM
Notes: whole 60-bp probe, lowest competitor level
Added: Cbf1 competitor, 0.05 µM
Direction: higher = stronger binding
All sequences stand within: … GTCTTGATTCGCTTGACGCTGCTG
Target sequence (chain): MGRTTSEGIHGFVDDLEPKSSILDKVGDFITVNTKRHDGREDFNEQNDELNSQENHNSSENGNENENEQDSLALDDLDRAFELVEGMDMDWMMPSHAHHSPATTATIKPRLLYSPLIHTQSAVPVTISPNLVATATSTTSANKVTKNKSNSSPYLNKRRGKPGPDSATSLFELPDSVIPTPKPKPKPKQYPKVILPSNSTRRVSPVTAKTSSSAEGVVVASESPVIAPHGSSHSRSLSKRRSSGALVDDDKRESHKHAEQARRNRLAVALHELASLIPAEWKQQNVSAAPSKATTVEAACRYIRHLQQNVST
Sequence	fluorescence intensity
ACACTAGAATTGACTCTCGTGGCCGTAATACGAACA	9360 a.u.
CTTCTGTAAATTTGTCACCTAACTTGACGCGCCCCG	3140 a.u.
AAATAAGGATTTTTGCACGTATATCCAACAGAATTA	5890 a.u.
AAATTACTAAGTTGGGGGGTGGGTGACGCCGTATGA	5630 a.u.
ATCACATCAAAACATTGTGGTTCTCTGAACAGCCTA	4900 a.u.
GAGCGACTCAGGACGCGCGTGTGTTATTTTGGCCCC	8740 a.u.
CGGGGTTAAGTTTGCGGTGTGGGTGGCTTGCAGCAG	5860 a.u.
AAAGCGGTAATTTTTCACGTGGCCTCACATATCTAT	15400 a.u.
TGCGCAACAACTTGGCTTGTGGGTGTATGTCTAGAA	5070 a.u.
CGACCCAAATAGTTAAACGTGTGGATTATGGGTGCA	10800 a.u.
CTCCCACCAGAACGTCACCTGCTCTCTTAATCAATG	6170 a.u.
AGTCGTCGTCCGGGACATAGGATCAGGAATCACAAT	3320 a.u.
AATTCAAATGTGGACGTCGTGACTCGAAACAGCATA	6250 a.u.
GAAGCGTACGCCCATCACGTGACGGAAGTTGCAATG	13000 a.u.
TCACTGAACTTCTGTGACCTGCGAGGACCAAGATCA	2640 a.u.
TTATGGATAGAGTCCCACGCTGATATAAACACCATA	7490 a.u.
TTGAACGACAAGACTCACGTGGTCGAGCTTCTACCA	15800 a.u.
TGGTATAGCAATTTGCACGTTCACTGCCATTGACTT	10900 a.u.

Sample 5
Target: NFE2L1, bZIP domain (human)
Method: DHFR protein complementation
Sample: yeast
Notes: single substitutions, most at no-binding floor
Reference: wild-type JUN-FOS pair
Direction: higher = stronger binding
Parent: JUN, bZIP domain (human); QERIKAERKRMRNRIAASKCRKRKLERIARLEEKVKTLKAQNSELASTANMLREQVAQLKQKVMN; partner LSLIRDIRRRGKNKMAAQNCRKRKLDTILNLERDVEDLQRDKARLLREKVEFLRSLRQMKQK
Variant	binding fitness
E44T	-1.55 natural log
M51P	-1.54 natural log
A46Y	-1.32 natural log
S43R	-1.41 natural log
A29M	-1.5 natural log
S47D	-1.47 natural log
K34W	-1.4 natural log
I28D	-1.53 natural log
A29S	-1.51 natural log
N42Y	-1.51 natural log
Q41W	-1.5 natural log
E32W	-1.51 natural log
N42F	-1.48 natural log
E33K	-1.46 natural log
M51S	-1.27 natural log
A46D	-1.54 natural log
K39L	-1.51 natural log

Sample 6
Target: ABI1, truncated, D143A, DHFR fusion (Arabidopsis thaliana)
Method: DHFR PCA, deep sequencing
Sample: yeast
Notes: methotrexate growth selection, single substitutions
Added: (+)-ABA 17 µM
Reference: wild-type fitted maximum
Direction: higher = stronger binding
Parent: PYL1, truncated, DHFR fusion (Arabidopsis thaliana); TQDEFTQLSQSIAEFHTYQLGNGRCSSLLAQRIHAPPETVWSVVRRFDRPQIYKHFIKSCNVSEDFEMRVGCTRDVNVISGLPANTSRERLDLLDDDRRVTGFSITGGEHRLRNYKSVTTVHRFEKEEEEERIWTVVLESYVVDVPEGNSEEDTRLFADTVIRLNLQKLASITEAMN
Variant	relative binding score
T119V	45.8%
R45V	-9.03%
E109D	108%
R113I	80.8%
R46T	58.9%
R90Y	1.36%
L29Q	45.8%
E131Y	73.8%
Q51N	57.1%
E151M	81.5%
N165A	-3.34%
R113L	74.9%
R163D	4.36%
N114V	-1.25%
V121T	11.6%
I52P	7.55%

Excerpt of the above (sample 1):
Variant	normalised enrichment score
VFAVQKLDFSDTM [S2F]	0.54
VSAGQKLDFSDTM [V4G]	-0.217
PSAVQKLDFSDTM [V1P]	0.863
VSAVQKLDFKDTM [S10K]	0.113
VSAVQKKDFSDTM [L7K]	0.14
SSAVQKLDFSDTM [V1S]	1.07
VSAVQKYDFSDTM [L7Y]	-0.252
VSAVQKLDFMDTM [S10M]	0.624
VSAVQKDDFSDTM [L7D]	0.114
VSAVQKLDFHDTM [S10H]	0.611
VSAVQKLDCSDTM [F9C]	0.0308
VSAVQKLDFSDTF [M13F]	0.741
